Measured values pooled from the literature.
Each numbered part is a random draw from the data of one study; scales do not carry over between parts. Substitutions count along the parent as printed.

Series 1
Target: inorganic phosphate, free oxyanion
Technique: microfluidic competitive inhibition
Matrix: in vitro, cell-free expressed
Tested at: not given
Setting: derived from inhibition constants, unchanged parent 615000 nM
Reading: lower = stronger binding
Quantity: phosphate dissociation constant
Parent: PafA, mature enzyme, eGFP fusion (Elizabethkingia meningoseptica, UniProt Q9KJX5); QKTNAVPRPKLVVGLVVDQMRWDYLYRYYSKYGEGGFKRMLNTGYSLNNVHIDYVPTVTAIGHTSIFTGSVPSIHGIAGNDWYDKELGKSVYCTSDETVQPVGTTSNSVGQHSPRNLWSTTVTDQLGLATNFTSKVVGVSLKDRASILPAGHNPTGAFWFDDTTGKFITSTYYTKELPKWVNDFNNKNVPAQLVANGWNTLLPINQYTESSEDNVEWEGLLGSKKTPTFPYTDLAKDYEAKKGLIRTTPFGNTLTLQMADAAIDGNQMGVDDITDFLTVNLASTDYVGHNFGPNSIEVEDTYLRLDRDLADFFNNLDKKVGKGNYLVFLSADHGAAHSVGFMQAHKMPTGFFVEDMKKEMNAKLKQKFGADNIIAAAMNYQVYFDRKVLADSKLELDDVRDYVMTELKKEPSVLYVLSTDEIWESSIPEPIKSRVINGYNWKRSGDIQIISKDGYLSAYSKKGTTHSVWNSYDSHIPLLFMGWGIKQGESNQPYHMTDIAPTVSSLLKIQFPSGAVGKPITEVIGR
T164V: 576 µM
A310G: 548 µM
P178V: 600 µM
S30V: 637 µM
F341V: 510 µM
L128G: 386 µM
G103V: 571 µM

Series 2
Target: PABPC1L2, full length, GST fusion (mouse, UniProt A0ABA7IW68)
Technique: RNAcompete
Form: RNA
Matrix: in vitro
Tested at: 20 nM
Setting: 7-mer, probes averaged, single round
Baseline: mean of 7-mers
Reading: higher = stronger binding
Quantity: 7-mer Z-score
Residues (chain): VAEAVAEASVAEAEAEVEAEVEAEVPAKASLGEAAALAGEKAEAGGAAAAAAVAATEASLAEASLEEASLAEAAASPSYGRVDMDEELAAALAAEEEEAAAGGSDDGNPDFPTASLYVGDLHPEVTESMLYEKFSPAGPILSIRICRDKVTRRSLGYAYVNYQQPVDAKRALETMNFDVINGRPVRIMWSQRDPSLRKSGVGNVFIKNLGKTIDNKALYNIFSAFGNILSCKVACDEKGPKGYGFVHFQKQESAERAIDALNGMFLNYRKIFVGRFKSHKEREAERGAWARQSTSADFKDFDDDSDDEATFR
GUGGUGA: -0.0681
UCCGUUA: -0.349
AGGGCAU: 0.407
CAGGUCA: 0.00254
UCAUCUG: -0.22
GGCUCCU: -0.224
CAUCACC: -0.144
CGGAUCA: 0.0279

Series 3
Target: CCNB2, cyclin fold, Cln2 fusion (human)
Technique: yeast growth competition, sequencing
Matrix: yeast
Setting: strong parent motif
Baseline: not given
Reading: higher = stronger binding
Quantity: normalised enrichment score
Parent: viral docking peptide; YKVKRRLVFGADD; partner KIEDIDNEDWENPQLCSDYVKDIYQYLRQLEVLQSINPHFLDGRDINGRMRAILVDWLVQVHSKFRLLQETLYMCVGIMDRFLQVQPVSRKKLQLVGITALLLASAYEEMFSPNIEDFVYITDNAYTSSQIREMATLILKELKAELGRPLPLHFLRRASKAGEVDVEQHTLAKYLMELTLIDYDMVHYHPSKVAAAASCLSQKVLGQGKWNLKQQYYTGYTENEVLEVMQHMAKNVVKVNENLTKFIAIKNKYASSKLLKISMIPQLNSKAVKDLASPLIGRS
YKVIRRLVFGADD [K4I]: 0.105
YVVKRRLVFGADD [K2V]: 1.64
YKVKRQLVFGADD [R6Q]: 0.906
YEVKRRLVFGADD [K2E]: 2.61
YKVERRLVFGADD [K4E]: 0.0822
YKVKRRLVFGAKD [D12K]: 0.452
YKVKRRLVFAADD [G10A]: 1.91

Series 4
Target: RING finger protein unkempt homolog, zinc fingers 1-6, GST-SBP tag (UNK, Homo sapiens, UniProt Q9C0B0, residues 30-357)
Sequence of UniProt Q9C0B0 (30-357, looked up): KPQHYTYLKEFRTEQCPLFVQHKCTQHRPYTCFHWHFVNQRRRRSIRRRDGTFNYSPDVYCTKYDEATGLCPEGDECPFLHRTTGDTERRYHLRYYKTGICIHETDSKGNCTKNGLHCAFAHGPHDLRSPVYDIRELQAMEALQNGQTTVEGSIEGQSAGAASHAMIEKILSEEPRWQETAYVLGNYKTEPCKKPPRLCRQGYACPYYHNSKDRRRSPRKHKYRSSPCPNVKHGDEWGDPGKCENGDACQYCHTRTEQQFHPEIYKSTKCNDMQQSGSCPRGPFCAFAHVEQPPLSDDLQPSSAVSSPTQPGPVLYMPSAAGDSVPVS
Technique: RNA Bind-n-Seq
Form: RNA
Matrix: in vitro
Tested at: not given
Setting: RNA with constant flanks, human and mouse sites, ends assumed
Baseline: input RNA pool
Reading: higher = stronger binding
Quantity: bound/input enrichment
All sequences stand within: GGGAGUUCUACAGUCCGACGAUC … CAACAGAGGAUUGAGCAUCA
CUGUUACAAGGUUGGUACAUUGUGACCUACGCCUUGGGAAUUUACCACCUAAACCUUUUCAUUGCGUUCCUUUCUCCCAAAGUGGAUCCUUCCUUGAUGGAAGACUCAGAUGACGGCCCU: 0.188 ratio
GAUACUCAGGGUAAAAAGAAAUGGAAAAAAACAUGUUGUCUCCCAUCUUUUGUCAUCUUCCUUUUUAUCAUUGGCUGCAUUAUAUCUGGAAUUACUCUUCUGGCUAUAUUUAGAGUUGAC: 0.352 ratio
GAGCCGCGACACCGCCGGCCUUAGCGCUGCGCUGCCCGGAACCGCCCCUAAAGAGGAGACCCGGGGCGGGGUCGCGCCUCGGGCCUCCGCUGCGGUCCCCGGCAGGCGGGAGCCGGCGCU: 0.44 ratio
AGAACACAGUUAUGGGUCGCAAGAAGAAGAAGCAGCUGAAGCCGUGGUGCUGGUAUUGUAAUAGAGAUUUUGAUGAUGAGAAGAUCCUUAUUCAGCACCAAAAAGCAAAGCAUUUUAAAU: 0.385 ratio
AGAAGGAAGCGAGCCCGGCAGAUCAAUGUUUCCACAGAUGACUCAGAGGUCAAAGCUUGCCUUAGAGCCUUGGGGGAACCCAUCACACUUUUUGGAGAGGGUCCUGCUGAAAGAAGAGAA: 0.168 ratio
AACAACAAAAAACCCCAAGGAACCUAAUAACCUUUUUGAAAAACAAAAUAAUGAGAAUUUUUAGUGAUAUAUUUCUUAUUUGACAGAAUAAGGUGUCUGGAGGGGGUCCUGUACUCAUCC: 0.697 ratio
AUUAAUUGGACAGAACAGAACUACCCUCAAGGGGGGAAAGAGAGUAACAUGUCAGCGUUAGUGGAGAGAGCGAUAGAAGCACUCCAAGGAGAGACGCGCUAUUAUAAUGACCCCCGCUUU: 0.191 ratio
AAAUUUGUUCAUGGGUAUGGGGAAACAAAUCUCUUUCUGAUGCUUAACGAUUCUAUCCUAUUAUUUUUAUUAUUUUGUUUUUGUCUUUUUUCUUAUGAGCUUUCACCACUACUGAUAUUU: 9.05 ratio

For quick reference, copied from above (series 3):
YKVKRRLVFGAKD [D12K]: 0.452
YKVERRLVFGADD [K4E]: 0.0822
YEVKRRLVFGADD [K2E]: 2.61
